# Literature values, collected from citations in different studies.
# ± gives the spread as reported.
# ABCB1: ATP-dependent translocase ABCB1 (ABCB1, Homo sapiens, UniProt P08183)
# Sequence of UniProt P08183 (whole entry, looked up): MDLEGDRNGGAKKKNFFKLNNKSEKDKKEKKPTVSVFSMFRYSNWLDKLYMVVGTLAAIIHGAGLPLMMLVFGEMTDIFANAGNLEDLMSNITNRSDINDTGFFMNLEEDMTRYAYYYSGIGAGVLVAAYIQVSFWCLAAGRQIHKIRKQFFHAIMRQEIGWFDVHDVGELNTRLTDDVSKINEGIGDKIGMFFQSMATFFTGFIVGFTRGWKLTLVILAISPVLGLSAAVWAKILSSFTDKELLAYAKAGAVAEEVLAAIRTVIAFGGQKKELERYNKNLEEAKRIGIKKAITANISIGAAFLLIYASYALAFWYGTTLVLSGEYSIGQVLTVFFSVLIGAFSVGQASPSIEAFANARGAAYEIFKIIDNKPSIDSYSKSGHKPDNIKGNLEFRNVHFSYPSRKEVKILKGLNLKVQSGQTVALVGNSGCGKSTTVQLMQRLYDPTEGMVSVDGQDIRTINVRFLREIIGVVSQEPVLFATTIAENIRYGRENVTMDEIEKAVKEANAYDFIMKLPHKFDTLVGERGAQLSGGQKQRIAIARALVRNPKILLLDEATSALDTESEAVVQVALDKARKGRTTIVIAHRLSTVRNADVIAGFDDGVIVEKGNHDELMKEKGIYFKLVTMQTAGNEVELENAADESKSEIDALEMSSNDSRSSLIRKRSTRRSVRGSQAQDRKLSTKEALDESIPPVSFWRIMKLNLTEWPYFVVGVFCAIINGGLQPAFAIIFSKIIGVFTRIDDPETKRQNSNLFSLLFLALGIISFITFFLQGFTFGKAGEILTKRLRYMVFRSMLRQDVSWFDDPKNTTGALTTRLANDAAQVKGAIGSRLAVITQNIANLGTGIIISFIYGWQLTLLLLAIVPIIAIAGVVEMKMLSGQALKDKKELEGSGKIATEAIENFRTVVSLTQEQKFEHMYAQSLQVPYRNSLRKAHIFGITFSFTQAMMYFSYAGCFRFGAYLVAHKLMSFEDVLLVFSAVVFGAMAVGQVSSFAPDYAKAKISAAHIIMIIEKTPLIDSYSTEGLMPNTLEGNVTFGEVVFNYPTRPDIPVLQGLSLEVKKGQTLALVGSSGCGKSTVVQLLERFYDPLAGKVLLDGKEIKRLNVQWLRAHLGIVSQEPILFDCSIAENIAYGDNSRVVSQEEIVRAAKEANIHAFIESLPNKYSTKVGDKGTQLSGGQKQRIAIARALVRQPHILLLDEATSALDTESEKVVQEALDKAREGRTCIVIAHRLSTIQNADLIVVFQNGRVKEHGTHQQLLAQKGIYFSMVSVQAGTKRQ
# Sequence of UniProt P08684 (whole entry, looked up): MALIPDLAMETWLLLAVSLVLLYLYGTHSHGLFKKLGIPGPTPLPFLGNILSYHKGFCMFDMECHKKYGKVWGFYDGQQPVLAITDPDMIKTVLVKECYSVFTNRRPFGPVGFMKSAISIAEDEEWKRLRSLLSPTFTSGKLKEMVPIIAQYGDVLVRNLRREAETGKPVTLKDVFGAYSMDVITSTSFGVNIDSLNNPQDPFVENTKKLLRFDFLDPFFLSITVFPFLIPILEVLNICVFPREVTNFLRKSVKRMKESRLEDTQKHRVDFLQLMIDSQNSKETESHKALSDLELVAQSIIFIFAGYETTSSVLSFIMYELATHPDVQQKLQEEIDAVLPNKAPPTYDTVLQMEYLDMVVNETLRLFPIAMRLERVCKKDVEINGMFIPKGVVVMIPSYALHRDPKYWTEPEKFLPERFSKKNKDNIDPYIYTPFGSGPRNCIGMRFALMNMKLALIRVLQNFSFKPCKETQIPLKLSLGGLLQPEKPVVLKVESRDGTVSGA
# Sequence of UniProt P11712 (whole entry, looked up): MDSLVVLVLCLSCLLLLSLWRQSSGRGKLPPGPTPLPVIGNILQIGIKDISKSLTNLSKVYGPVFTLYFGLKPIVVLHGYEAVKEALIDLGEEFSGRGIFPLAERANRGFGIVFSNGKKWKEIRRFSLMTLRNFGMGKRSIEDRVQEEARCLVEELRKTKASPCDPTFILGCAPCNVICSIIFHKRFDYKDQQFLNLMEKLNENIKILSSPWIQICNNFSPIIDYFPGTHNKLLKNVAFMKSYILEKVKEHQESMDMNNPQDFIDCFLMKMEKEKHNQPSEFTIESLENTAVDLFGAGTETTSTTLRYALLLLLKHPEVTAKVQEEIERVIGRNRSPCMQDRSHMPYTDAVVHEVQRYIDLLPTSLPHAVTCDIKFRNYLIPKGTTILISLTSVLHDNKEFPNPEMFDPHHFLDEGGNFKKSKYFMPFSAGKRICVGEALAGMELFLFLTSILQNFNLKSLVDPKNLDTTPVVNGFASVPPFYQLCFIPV
SMILES,target,assay,system,setting,how to read,measurement,result
O=C1C=C2CN(C(C(=O)C3CC3)c3ccccc3F)CCC2S1 (stereo not shown),CYP2B6,item: prasugrel active metabolite,in vitro,concentration not given,,contribution to bioactivation,2 to 26%
COc1ccc(Nc2nccc(-c3c[nH]nc3-c3cccnc3)n2)cc1,"Cytochrome P450 3A4 (CYP3A4, Homo sapiens, UniProt P08684)",,,10 µM,,inhibition,71%
C[C@@H](c1cc(-c2ccc(OC(F)(F)F)cc2)no1)[C@](O)(Cn1cnnn1)c1ccc(F)cc1F,CYP3A4,inhibitor,,concentration not given,,inhibition,no inhibition
O=C(N1CCC(C(c2ccc3c(c2)OCO3)c2ccc3c(c2)OCO3)CC1)n1cncn1 [carbon-11 labelled],MAGL,,"rat, brain",,,brain uptake,~0.8 SUV
CN1CCC(C)(C)c2cc3c(-c4ccc(C(=S)N5CCCCC5)s4)c4ccc(=[N+](C)C)cc-4sc3cc21,ABCB1,substrate,,"concentration not given, with inhibitor",,cell-associated fraction,62 ± 1%
Oc1ccc(O)c(CN(CCN(Cc2ccccn2)Cc2cc(O)ccc2O)Cc2ccccn2)c1.[Br-].[Br-].[Mn+2],Mn(II) complex,,,25 °C,,pKa,5.53
Cc1cc(C#N)cc(C)c1Oc1nc(NC2CCN(Cc3ccc(S(N)(=O)=O)cc3)CC2)nc2ccsc12,hERG,inhibitor,,,,IC50,130 nM
COc1ccc2cc(C(=O)/C=C/c3cccnc3)ccc2c1,CYP1B1,,,,,IC50,4 nM
CCCCc1oc2ccccc2c1C(=O)c1cc(I)c(OCCNCC)c(I)c1,CYP2C9,mechanism-based inhibitor,,added: diclofenac,,kinact,~0.1 min⁻¹
Cc1[nH]nc2c1N=C(c1ccccc1Cl)c1cnc(N3CCOCC3)cc1N2,CYP2C8,"substrate, chemical inhibition",,,,contribution to metabolism,20%
CC(=O)N1CCC(NC(=O)NC23CC4CC(C)(CC(C2)c2ccccc24)C3)CC1,"Cytochrome P450 2C9 (CYP2C9, Homo sapiens, UniProt P11712)",,,10 µM,,inhibition,29 ± 3%
CN1CCC(C)(C)c2cc3c(-c4ccc(C(=O)N5CCCCC5)s4)c4ccc(=[N+](C)C)cc-4sc3cc21,ABCB1,item: cell-associated dye,,,reference: with over without P-gp inhibitor,cellular dye accumulation ratio,5.2
O=C(O)c1cc2cc(O)ccc2n1Cc1ccc(Cl)c(C(F)(F)F)c1,rat BSEP,bile acid transport,,,,IC50,130000 nM

# Repeated from above:
SMILES,target,assay,system,setting,how to read,measurement,result
COc1ccc(Nc2nccc(-c3c[nH]nc3-c3cccnc3)n2)cc1,"Cytochrome P450 3A4 (CYP3A4, Homo sapiens, UniProt P08684)",,,10 µM,,inhibition,71%
Cc1cc(C#N)cc(C)c1Oc1nc(NC2CCN(Cc3ccc(S(N)(=O)=O)cc3)CC2)nc2ccsc12,hERG,inhibitor,,,,IC50,130 nM
